Published values gathered from unrelated publications.
Protocols differ between the studies behind these lines. “And” joins repeats or separate records; there may be more than shown. Numbers after ± are the reported error.
Chrna7: Neuronal acetylcholine receptor subunit alpha-7 (Chrna7, Rattus norvegicus, UniProt Q05941)
MAP3K7 with TAB1: Mitogen-activated protein kinase kinase kinase 7, with TAB1 (MAP3K7, Homo sapiens, UniProt O43318)
MAL12: Alpha-glucosidase MAL12 (MAL12, Saccharomyces cerevisiae S288c, UniProt P53341)

Compound	tested on	test	system	setting	how to read	measurement	value
O=C(Nc1cccnn1)N1CCC(=Cc2cccc(Oc3ccc(C(F)(F)F)cn3)c2)CC1	Carnitine O-palmitoyltransferase 1, liver isoform (Rattus norvegicus, UniProt P32198)	enzyme activity	–	concentration not given	–	inhibition	6% and 1%
O=C(Nc1cccnn1)N1CCN([C@@H]2CCOc3cc(C(F)(F)F)ccc32)CC1	Na+/K+-ATPase	enzyme activity	–	20 µM	–	inhibition	-1%
O=C(c1ccc(Cl)cc1)N1CCN2C(=O)N(OC(=O)N3CCOc4ccccc43)C(=O)C2C1 (stereo not shown)	Acyl-protein thioesterase 2 (Homo sapiens, UniProt O95372)	MS-based ABPP	SW-620 conditioned medium	10 µM, 1 h, 37 °C	relative to: compound over DMSO, lower = more inhibition	median protein ratio	1.06
CN1CCN(c2nc(N)c3ccccc3n2)CC1	Neuronal acetylcholine receptor; alpha4/beta2 (Homo sapiens, UniProt P17787+P43681)	radioligand binding, radioligand competition binding	–	0.1 µM, first replicate	relative to: control specific binding	inhibition	8.3%
C[C@H]1CN(c2n[nH]c3nc(N[C@H]4CC[C@H](NS(=O)(=O)CCC(F)(F)F)CC4)ncc23)CCO1	HDAC1 (Homo sapiens, UniProt Q13547)	inhibitor, Kinobeads competition profiling	–	20 µM	relative to: vehicle	relative abundance	1.18
C[C@H](C(=O)N[C@H]1COc2ccccc2[C@@H]1S(C)(=O)=O)c1ccc(F)cc1	Androgen receptor (AR, Homo sapiens, UniProt P10275)	binding	–	10 µM, Eurofins selectivity panel, together with: testosterone	–	inhibition	7%
FC(F)(F)c1cccc(Nc2nc(NCCOc3ccccc3)nc3[nH]cnc23)c1	MAPK11 (Homo sapiens, UniProt Q15759)	enzyme activity, inhibitor, Thermo Fisher kinase screening	–	5 µM	–	inhibition	3%
COCc1c(-c2cc3cc(C)cc(OC)c3s2)c2c(N)ncnn2c1CN1CCNC(=O)C1	GABAA central benzodiazepine site	radioligand binding	–	10 µM	–	inhibition	3%
COc1cc2nc(N3CCN(C(=O)C4COc5ccccc5O4)CC3)nc(N)c2cc1OC (stereo not shown)	Plasmodium falciparum	–	HB3	–	–	IC50	2.51 µM
CN[C@@]1(c2ccccc2Cl)CCCCC1=O	DRD2 (Homo sapiens, UniProt P14416)	radioligand binding, antagonist, radioligand displacement	–	30 µM, short isoform	–	inhibition	7%
O=C1O[C@H]2[C@@H]3OC(=O)c4cc(O)c(O)c(O)c4-c4c(O)c(O)c5oc(=O)c6c(c(O)c(O)c7oc(=O)c4c5c76)-c4c(cc(O)c(O)c4O)C(=O)OC[C@H]3OC(O)[C@@H]2OC(=O)c2cc(O)c(O)c(O)c2-c2c1cc(O)c(O)c2O (mixture of isomers)	P4HB (Homo sapiens, UniProt P07237)	di-eosin-GSSG reductase activity	–	20 µM, 15 min	–	inhibition	inhibited
Cc1ncc(C)n2nc(/C=C/c3nc(N4CCCC4)cc(N4CCOCC4)n3)nc12	Quinone reductase 2 (Mesocricetus auratus, UniProt A0ABM2YAB8)	radioligand binding	–	10 µM	–	inhibition	34%
COc1cc(Nc2ncc(F)c(Nc3ccc4c(n3)NC(=O)C(C)(C)O4)n2)cc(OC)c1OC	PDGFRB (Homo sapiens, UniProt P09619)	KINOMEscan	–	10 µM	–	inhibition	100%
CN(N=O)c1ccc(O)c(O)c1	F13A1 (Homo sapiens, UniProt P00488)	crosslinking activity	–	15 µM, without DTT	–	inhibition	inhibited
Oc1ccc2c3c1O[C@H]1[C@@H](O)CC[C@@]4(O)[C@@H](C2)N(CC2CCC2)CC[C@]314	Adhesion G-protein coupled receptor D1 (ADGRD1, Homo sapiens, UniProt Q6QNK2)	β-arrestin recruitment, TANGO luminescence, item: GPR133	–	concentration not given	relative to: basal luminescence	log2 fold change	0.203
COc1ccc(N2C(=O)N(c3c(C)cccc3Cl)Cc3cnc(Nc4ccc(C5CCN(C)CC5)cc4OC)nc32)nc1	NEK6 (Homo sapiens, UniProt Q9HC98)	kinase activity	–	0.5 µM	–	inhibition	5%
CC[C@H](C)[C@H](NC(=O)[C@@H](NC(=O)[C@H](N)Cc1ccccc1)C(C)C)C(=O)N[C@@H](C)C(N)=O	APP (Homo sapiens, UniProt P05067)	amyloid-beta aggregation, thioflavin T fluorescence	–	2.0 µM, 72 h, together with: 2 µM amyloid-beta	–	inhibition	96%

Compound	tested on	test	system	setting	how to read	measurement	value
O=C(N1CCC2(CC1)C[C@@H](CN1CCCCS1(=O)=O)CCO2)C1(c2ccccc2)CCCC1	DDX3X (Homo sapiens, UniProt O00571)	ATPase activity	–	50 µM	–	inhibition	30%
COc1ccc2c3c([nH]c2c1)CCN(C)CC3	Chrna7	ACh-evoked current, antagonist, two-electrode voltage clamp	Xenopus laevis oocytes	10 µM, holding potential -120 mV, together with: 100 µM acetylcholine	–	inhibition	78.4 ± 5.9%
C#Cc1n[nH]c2c(-c3cn([C@@H](C)c4ccccc4)c(=O)[nH]c3=O)cc(F)cc12	MAP3K7 with TAB1	kinase activity, inhibitor	–	100 nM	–	inhibition	-3%
COc1ccc(CCN(C)CCCC(C#N)(c2ccc(OC)c(OC)c2)C(C)C)cc1OC (stereo not shown)	Plasmodium falciparum	–	GB4	–	–	IC50	5.01 µM
CCc1cc(=O)[nH]c(-n2nc(C)cc2NC(=O)c2ccc(C)c(C)c2)n1	KDR (Homo sapiens, UniProt P35968)	radiometric kinase	–	10 µM	–	inhibition	no inhibition
CN(CCN1CCC(OC(=O)Nc2ccccc2-c2ccccc2)CC1)C(=O)c1ccc(CN2CCC(C(N)=O)CC2)cc1	bovine peripheral I1 site	radioligand binding	–	1 µM, together with: [3H]clonidine 15 nM	–	inhibition	12%
Cn1cc(-c2cccc(N3CCc4c(sc5c4CC(C)(C)C5)C3=O)c2CO)cc(Nc2ccncn2)c1=O	MAP3K7 with TAB1	kinase activity, inhibitor	–	1 µM, SelectScreen profiling	–	inhibition	1%
Cn1cccc1-c1cccnc1	DRD3 (Homo sapiens, UniProt P35462)	binding	–	50 µM	–	inhibition	-6.26%
CN1CCN(c2cc(-c3ccncc3)c(-c3ccc4ccccc4c3)nn2)CC1	HRH1 (Homo sapiens, UniProt P35367)	antagonist, FLIPR	–	10 µM	–	inhibition	0.5%
CN1C(=S)N(c2ccccc2)C(=O)/C1=C1/C(=O)N(C)c2ccc(Cl)cc21	MAL12	enzyme activity	–	200 µM, together with: pNPG	–	inhibition	54.4% and 54.3%
CN(C(=O)n1cnc(-c2ccc[n+]([O-])c2)c1)C1CCCCC1	GABAA receptor chloride channel, rat	binding	–	10 µM, together with: [3H]TBOB	–	inhibition	18%
CC(C)N1CCC[C@H]1CNC(=O)c1cn(C2CCCC2)c(=O)c2c1c1ccccc1n2C	NMDA receptor agonist site, rat	radioligand binding	–	10 µM	–	inhibition	1%
O=c1ccc2ccccc2o1	PDE3A (Homo sapiens, UniProt Q14432)	enzyme activity	–	10 µM, SafetyScreen44	–	inhibition	11.5%
COc1ccc(CCC2CCCC(CCc3ccc(OC)cc3)N2C[C@@H](O)CO)cc1.Cl (stereo in doubt)	Chrna7	[3H]methyllycaconitine binding	–	30 µM	–	inhibition	~20%
O=C(Nc1cnccc1Cl)N1CCN(Cc2ccc3c(c2)OC(F)(F)O3)CC1	STK17A (Homo sapiens, UniProt Q9UEE5)	kinase activity, inhibitor	–	50 µM, human	–	inhibition	-3%
CC(C)CC(=O)OC[C@H]1O[C@@](C#N)(c2ccc3c(N)ncnn23)[C@H](O)[C@@H]1O	PGR (Homo sapiens, UniProt P06401)	–	–	20 µM	–	inhibition	3%
CN1C(=O)/C(=N\Nc2ncc(-c3cc4ccccc4oc3=O)s2)c2cc(Cl)ccc21	MAL12	enzyme activity	–	100 µM, together with: pNPG	–	inhibition	48.2% and 48%

Some of these lines once more:
Compound	tested on	test	system	setting	how to read	measurement	value
Cn1cccc1-c1cccnc1	DRD3 (Homo sapiens, UniProt P35462)	binding	–	50 µM	–	inhibition	-6.26%
CC(C)CC(=O)OC[C@H]1O[C@@](C#N)(c2ccc3c(N)ncnn23)[C@H](O)[C@@H]1O	PGR (Homo sapiens, UniProt P06401)	–	–	20 µM	–	inhibition	3%
CC(C)N1CCC[C@H]1CNC(=O)c1cn(C2CCCC2)c(=O)c2c1c1ccccc1n2C	NMDA receptor agonist site, rat	radioligand binding	–	10 µM	–	inhibition	1%
